Published values from different studies.
Each numbered part is a random draw from the data of one study; scales do not carry over between parts.
Chain of UniProt P35348 (whole entry, looked up): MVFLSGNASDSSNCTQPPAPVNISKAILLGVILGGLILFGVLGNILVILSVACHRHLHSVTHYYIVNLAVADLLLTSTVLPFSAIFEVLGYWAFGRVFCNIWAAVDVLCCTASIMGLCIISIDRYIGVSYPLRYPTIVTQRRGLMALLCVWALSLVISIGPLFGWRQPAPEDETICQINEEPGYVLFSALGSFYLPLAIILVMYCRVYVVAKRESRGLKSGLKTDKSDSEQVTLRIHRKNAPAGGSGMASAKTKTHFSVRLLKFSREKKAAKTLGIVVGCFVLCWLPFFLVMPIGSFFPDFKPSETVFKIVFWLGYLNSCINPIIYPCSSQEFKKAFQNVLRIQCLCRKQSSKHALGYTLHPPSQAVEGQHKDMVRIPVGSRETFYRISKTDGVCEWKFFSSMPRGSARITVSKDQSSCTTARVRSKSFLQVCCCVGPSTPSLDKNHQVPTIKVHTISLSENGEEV
Chain of UniProt Q2M2I8 (whole entry, looked up): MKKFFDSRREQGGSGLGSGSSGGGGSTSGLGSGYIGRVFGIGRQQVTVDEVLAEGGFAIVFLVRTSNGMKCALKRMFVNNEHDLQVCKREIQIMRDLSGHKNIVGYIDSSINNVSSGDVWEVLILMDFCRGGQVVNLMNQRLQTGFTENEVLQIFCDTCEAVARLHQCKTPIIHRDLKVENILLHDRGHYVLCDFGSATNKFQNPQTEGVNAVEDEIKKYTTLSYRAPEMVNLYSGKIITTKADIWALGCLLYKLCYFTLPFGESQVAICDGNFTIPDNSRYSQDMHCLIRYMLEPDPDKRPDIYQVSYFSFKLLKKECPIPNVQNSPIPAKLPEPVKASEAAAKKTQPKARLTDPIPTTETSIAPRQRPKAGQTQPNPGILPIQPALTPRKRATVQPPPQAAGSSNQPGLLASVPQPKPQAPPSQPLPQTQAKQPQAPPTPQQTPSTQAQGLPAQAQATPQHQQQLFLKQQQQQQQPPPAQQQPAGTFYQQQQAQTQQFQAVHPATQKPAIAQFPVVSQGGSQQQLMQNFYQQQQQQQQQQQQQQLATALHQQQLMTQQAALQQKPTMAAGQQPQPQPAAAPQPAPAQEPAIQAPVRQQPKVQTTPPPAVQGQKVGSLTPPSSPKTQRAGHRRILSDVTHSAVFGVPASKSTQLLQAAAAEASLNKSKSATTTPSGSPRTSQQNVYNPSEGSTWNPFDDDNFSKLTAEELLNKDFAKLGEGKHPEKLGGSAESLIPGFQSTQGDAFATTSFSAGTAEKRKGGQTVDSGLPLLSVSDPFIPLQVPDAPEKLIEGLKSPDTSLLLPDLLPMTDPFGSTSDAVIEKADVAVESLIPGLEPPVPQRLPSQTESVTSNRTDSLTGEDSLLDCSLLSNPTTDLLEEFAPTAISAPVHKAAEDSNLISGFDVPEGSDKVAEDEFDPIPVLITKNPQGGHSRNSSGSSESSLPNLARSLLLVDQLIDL
Chain of UniProt P49674 (whole entry, looked up): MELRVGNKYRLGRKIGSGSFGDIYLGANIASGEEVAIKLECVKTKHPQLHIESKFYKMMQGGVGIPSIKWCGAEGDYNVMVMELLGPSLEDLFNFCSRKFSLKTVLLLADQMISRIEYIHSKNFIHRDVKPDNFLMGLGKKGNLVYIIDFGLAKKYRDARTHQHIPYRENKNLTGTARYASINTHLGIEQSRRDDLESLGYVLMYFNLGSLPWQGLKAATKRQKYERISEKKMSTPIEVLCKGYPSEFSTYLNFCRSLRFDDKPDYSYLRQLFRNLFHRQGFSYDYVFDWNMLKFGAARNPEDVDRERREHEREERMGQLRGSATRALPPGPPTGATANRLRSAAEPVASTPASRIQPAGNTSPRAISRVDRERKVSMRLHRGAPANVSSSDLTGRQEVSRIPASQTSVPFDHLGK
Chain of UniProt P08172 (whole entry, looked up): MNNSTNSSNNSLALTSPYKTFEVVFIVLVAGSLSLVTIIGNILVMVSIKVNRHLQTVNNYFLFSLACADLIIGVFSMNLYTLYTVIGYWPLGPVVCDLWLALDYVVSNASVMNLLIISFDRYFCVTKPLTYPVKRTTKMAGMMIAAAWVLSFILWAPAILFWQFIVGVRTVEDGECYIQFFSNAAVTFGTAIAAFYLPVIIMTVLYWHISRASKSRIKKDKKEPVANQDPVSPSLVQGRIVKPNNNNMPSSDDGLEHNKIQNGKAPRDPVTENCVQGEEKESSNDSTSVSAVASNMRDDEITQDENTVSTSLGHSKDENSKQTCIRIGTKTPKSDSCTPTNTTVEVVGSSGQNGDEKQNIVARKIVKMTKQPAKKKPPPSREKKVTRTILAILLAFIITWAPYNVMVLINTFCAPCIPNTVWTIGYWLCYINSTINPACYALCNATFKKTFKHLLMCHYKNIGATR

Set 1 — cell line: A-375; tested at: 100 µM; time: 36 h
Structure (SMILES) | viability [%]
CS(=O)(=O)OCCCCOS(C)(=O)=O | 98.1
CN(C/C=C/c1ccccc1)Cc1cccc2ccccc12 | 23.1
O=C(Nc1ccc(Cl)cc1)c1cc(Br)ccc1O | 14.2
CN1[C@@H]2CC[C@H]1C[C@@H](OC(=O)c1c[nH]c3ccccc13)C2 | 94.4
NC(=O)CCCCC1CCSS1 (stereo not drawn) | 103
CC1(C)O[C@@H]2C[C@H]3[C@@H]4CCC5=CC(=O)CC[C@]5(C)[C@@]4(F)[C@@H](O)C[C@]3(C)[C@]2(C(=O)CCl)O1 | 77.4
CC1(C)C(C=C(Cl)Cl)C1C(=O)OCc1cccc(Oc2ccccc2)c1 (stereo not drawn) | 94.1
COC(=O)C1=C(C)NC(C)=C(C(=O)OCC(C)C)C1c1ccccc1[N+](=O)[O-] (stereo not drawn) | -1.31
O=C(NCCN1CCOCC1)c1ccc(Cl)cc1 | 101
CC(C)(C)c1nc(-c2cccc(NS(=O)(=O)c3c(F)cccc3F)c2F)c(-c2ccnc(N)n2)s1 | 47.9

Set 2 — Structure (SMILES): C=CCc1ccc(O)c(-c2cc(CC=C)ccc2O)c1; read-out: chloride current
ANO1 del476-501/E649K: Anoctamin-1 (ANO1, Homo sapiens, UniProt Q5XXA6, del476-501/E649K)
Chain of UniProt Q5XXA6 (whole entry, unmodified, looked up): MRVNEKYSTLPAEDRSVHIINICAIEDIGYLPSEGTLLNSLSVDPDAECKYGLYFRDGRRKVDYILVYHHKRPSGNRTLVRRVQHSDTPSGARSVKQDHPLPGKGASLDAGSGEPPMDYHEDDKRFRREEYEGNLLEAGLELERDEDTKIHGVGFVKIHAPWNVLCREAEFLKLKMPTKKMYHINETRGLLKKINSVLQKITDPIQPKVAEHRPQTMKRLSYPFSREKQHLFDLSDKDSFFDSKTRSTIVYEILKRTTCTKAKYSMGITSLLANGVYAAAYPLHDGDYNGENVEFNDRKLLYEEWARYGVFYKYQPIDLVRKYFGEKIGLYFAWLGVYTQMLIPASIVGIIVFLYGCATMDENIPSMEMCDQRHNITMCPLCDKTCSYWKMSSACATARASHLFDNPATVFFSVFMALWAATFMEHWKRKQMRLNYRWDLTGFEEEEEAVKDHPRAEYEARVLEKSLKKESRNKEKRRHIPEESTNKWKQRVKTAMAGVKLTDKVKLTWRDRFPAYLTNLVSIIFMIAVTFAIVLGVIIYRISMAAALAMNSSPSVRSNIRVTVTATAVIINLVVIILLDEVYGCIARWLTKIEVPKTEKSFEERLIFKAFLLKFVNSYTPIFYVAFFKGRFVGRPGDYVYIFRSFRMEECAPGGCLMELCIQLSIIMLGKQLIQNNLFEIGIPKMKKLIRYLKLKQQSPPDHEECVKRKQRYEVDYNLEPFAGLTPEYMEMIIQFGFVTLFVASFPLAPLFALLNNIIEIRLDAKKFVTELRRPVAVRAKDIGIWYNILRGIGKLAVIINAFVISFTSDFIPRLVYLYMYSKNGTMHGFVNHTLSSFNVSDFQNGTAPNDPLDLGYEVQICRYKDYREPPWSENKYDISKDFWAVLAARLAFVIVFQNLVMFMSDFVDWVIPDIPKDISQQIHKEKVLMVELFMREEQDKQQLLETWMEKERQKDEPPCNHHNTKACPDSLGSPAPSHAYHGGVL
target | test | setting | IC50 [µM]
Anoctamin-1 (ANO1, Homo sapiens, UniProt Q5XXA6, del476-501/M544A) | whole-cell voltage clamp | membrane voltage 80 mV | 92.2
Anoctamin-1 (ANO1, Homo sapiens, UniProt Q5XXA6, del476-501/K629I) | inhibitor, whole-cell voltage clamp | 60 mV holding voltage | 262
ANO1 del476-501/E649K | inhibitor, whole-cell voltage clamp | E623K mutant at 80 mV | 124
ANO1 del476-501/E649K | inhibitor, whole-cell voltage clamp | E623K mutant at 20 mV | 176
Anoctamin-1 (ANO1, Homo sapiens, UniProt Q5XXA6, del476-501/F623A) | whole-cell voltage clamp | membrane voltage 80 mV | 24.6
Anoctamin-1 (ANO1, Homo sapiens, UniProt Q5XXA6, del476-501/E650A) | whole-cell voltage clamp | membrane voltage -40 mV | 18.7
Anoctamin-1 (ANO1, Homo sapiens, UniProt Q5XXA6, del476-501/R541D) | inhibitor, whole-cell voltage clamp | R515D mutant at -60 mV | 157
Anoctamin-1 (ANO1, Homo sapiens, UniProt Q5XXA6, del476-501/K629D) | inhibitor, whole-cell voltage clamp | 80 mV holding voltage | 264
Anoctamin-1 (ANO1, Homo sapiens, UniProt Q5XXA6, del476-501/R561A) | inhibitor, whole-cell patch clamp | 300 nM Ca2+, 100 mV | 29.6

Set 3 — read-out: enzyme activity; mode: inhibitor; tested at: 0.5 µM; relative to: control
Target: Serine/threonine-protein kinase Sgk1 (SGK1, Homo sapiens, UniProt O00141)
Chain of UniProt O00141 (whole entry, looked up): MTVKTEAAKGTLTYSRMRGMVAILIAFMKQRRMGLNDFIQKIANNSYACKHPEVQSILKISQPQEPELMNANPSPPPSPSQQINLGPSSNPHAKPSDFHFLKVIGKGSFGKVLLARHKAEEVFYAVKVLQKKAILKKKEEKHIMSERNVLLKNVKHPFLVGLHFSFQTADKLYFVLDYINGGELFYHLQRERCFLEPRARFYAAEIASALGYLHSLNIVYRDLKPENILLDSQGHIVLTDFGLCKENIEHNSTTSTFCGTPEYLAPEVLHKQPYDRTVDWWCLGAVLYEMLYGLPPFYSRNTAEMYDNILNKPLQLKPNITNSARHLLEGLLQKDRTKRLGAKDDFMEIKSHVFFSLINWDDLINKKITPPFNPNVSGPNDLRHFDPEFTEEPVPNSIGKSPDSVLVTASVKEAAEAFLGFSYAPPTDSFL
SMILES | remaining activity
NC(=O)c1ccc(N(C(N)=O)c2c(F)cccc2F)nc1-c1ccc(F)cc1F | 121%
CC(C)(C)n1nc(Cc2cccc3ccccc23)c2c(N)ncnc21 | 102%
Nc1nccc(-c2c(-c3ccc(F)cc3)ncn2C2CCNCC2)n1 | 97.4%
Cc1cncc2cccc(S(=O)(=O)N3CCCN(C(=O)CN)C[C@@H]3C)c12 | 102%
CSc1nc(-c2ccnc(N[C@@H](C)c3ccccc3)c2)c(-c2ccc(F)cc2)[nH]1 (racemic) | 97.3%
CC[n+]1c(/C=C/N(C)c2ccccc2)n(-c2ccccc2)c2ccc(-c3nc4ccccc4s3)cc21 | 97.2%
COc1ccc(S(=O)(=O)N(CCO)c2ccccc2CN(C)CC=Cc2ccc(Cl)cc2)cc1 | 103%
CCCC(=O)Oc1ccc2[nH]c(C(=O)c3cc4ccccc4[nH]3)cc2c1 | 97%
COc1cc(Nc2c(C#N)cnc3cc(OCCCN4CCN(C)CC4)c(OC)cc23)c(Cl)cc1Cl | 126%
CC(=O)c1ccc(N2CCOCC2)cc1O | 97.2%
CCc1[nH]c(-c2ccc(OC)cc2)nc1-c1ccncc1 | 104%
O=C1Cc2c([nH]c3ccc([N+](=O)[O-])cc23)-c2ccccc2N1 | 96%
Cc1cc(Nc2nc(-c3ccccc3)nc3ccccc23)n[nH]1 | 95.5%
N#CC(=C(N)Sc1ccc(N)cc1)c1ccccc1C(F)(F)F | 102%
O=C1NC(=O)C(c2c[nH]c3ccccc23)=C1c1c[nH]c2ccccc12 | 105%
O=S(=O)(NCCNC/C=C/c1ccc(Br)cc1)c1cccc2cnccc12 | 93.2%
CC#CC(=O)Nc1cc2c(Nc3ccc(F)c(Cl)c3)ncnc2cn1 | 95.6%
Cc1ccc(NC2=CC(=O)c3sc(C)nc3C2=O)cc1 | 114%
Nc1nc(Nc2ccc(S(N)(=O)=O)cc2)nn1C(=O)c1c(F)cccc1F | 93%
Fc1ccc(-c2nc3n(c2-c2ccncc2)CCS3)cc1 | 100%
Nc1ncnc2c1cnn2-c1ccccc1 | 90.9%
Oc1ccc(Nc2nc(-c3ccc(Cl)cc3)cs2)cc1 | 106%

Single results of other studies
SMILES | target | test | setting | quantity | value
Cn1cncc1[C@](O)(COc1ccc(C#N)cc1-c1ccc(OC(F)(F)F)cc1)c1ccc(C#N)cc1 | AP2-associated protein kinase 1 (AAK1, Homo sapiens, UniProt Q2M2I8) | binding | 1 µM | remaining binding | 87%
Cc1cc2c(-c3ccco3)cnc(N[C@H]3CCN(C)C[C@@H]3C(=O)NC3CCCCC3)c2[nH]c1=O | Muscarinic acetylcholine receptor M2 (CHRM2, Homo sapiens, UniProt P08172) | ligand displacement | 10 µM | inhibition | 5.25%
C[C@H](c1cccc(C#N)c1)n1cc(Cl)cc(C(N)=O)c1=N | Alpha-1A adrenergic receptor (ADRA1A, Homo sapiens, UniProt P35348) | binder, radioligand binding |  | Ki | 0.00677 µM
O=C(O)[C@H]1[C@H](Cn2nnc3ccccc3c2=O)CC[C@@H]1C(=O)c1ccc(OCCC2CCOCC2)cc1 | Casein kinase I isoform epsilon (CSNK1E, Homo sapiens, UniProt P49674) | cell-free assay, competition with immobilised ligand | 1 µM | remaining binding | 100%

For quick reference, copied from above (set 1):
Structure (SMILES) | viability [%]
CN(C/C=C/c1ccccc1)Cc1cccc2ccccc12 | 23.1
O=C(Nc1ccc(Cl)cc1)c1cc(Br)ccc1O | 14.2
CN1[C@@H]2CC[C@H]1C[C@@H](OC(=O)c1c[nH]c3ccccc13)C2 | 94.4
NC(=O)CCCCC1CCSS1 (stereo not drawn) | 103
CC1(C)O[C@@H]2C[C@H]3[C@@H]4CCC5=CC(=O)CC[C@]5(C)[C@@]4(F)[C@@H](O)C[C@]3(C)[C@]2(C(=O)CCl)O1 | 77.4
CC1(C)C(C=C(Cl)Cl)C1C(=O)OCc1cccc(Oc2ccccc2)c1 (stereo not drawn) | 94.1
COC(=O)C1=C(C)NC(C)=C(C(=O)OCC(C)C)C1c1ccccc1[N+](=O)[O-] (stereo not drawn) | -1.31
